Results from different studies.
A part holds a random share of what one study measured. Positions count from the first letter of the parent shown.

Series 1
Target: ABI1, truncated, D143A, DHFR fusion (Arabidopsis thaliana, UniProt P49597)
Method: DHFR PCA, dose-response
Matrix: yeast
Setting: Hill fit, mean, not affinity
With: (+)-ABA, dose series
Direction: lower = more sensitive
Endpoint: ABA EC50
Parent: PYL1, truncated, DHFR fusion (Arabidopsis thaliana, UniProt Q8VZS8); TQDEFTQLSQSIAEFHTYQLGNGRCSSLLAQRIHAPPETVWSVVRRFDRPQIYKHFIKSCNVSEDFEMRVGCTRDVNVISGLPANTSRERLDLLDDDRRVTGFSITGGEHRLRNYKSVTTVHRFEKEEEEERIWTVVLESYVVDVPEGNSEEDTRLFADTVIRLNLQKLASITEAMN
K168R: 2.53 µM
R69I: 2.66 µM
E147I: 4.29 µM
Q31C: 67.3 µM

Series 2
Target: Ras GTPase-activating protein-binding protein 1, RRM domain (G3BP1, Homo sapiens, UniProt Q13283)
Sequence of UniProt Q13283 (whole entry, looked up): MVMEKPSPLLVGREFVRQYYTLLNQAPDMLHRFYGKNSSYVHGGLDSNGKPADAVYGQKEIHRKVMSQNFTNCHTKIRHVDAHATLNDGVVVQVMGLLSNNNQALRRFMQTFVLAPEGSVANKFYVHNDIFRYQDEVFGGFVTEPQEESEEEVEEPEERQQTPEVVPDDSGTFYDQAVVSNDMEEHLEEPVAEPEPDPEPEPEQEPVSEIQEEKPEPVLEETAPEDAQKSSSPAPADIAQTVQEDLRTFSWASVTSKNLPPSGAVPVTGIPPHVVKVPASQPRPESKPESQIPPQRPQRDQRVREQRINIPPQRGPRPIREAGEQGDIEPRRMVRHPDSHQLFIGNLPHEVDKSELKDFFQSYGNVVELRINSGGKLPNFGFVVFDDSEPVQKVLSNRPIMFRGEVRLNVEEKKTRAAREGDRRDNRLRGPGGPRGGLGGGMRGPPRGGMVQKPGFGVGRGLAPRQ
Method: RNA Bind-n-Seq
Molecule type: RNA
Matrix: in vitro
Tested at: 1 µM
Setting: whole 134-nt RNA, ends assumed
With: 150 mM KCl
Reference: input library
Direction: higher = stronger binding
Endpoint: log2 enrichment
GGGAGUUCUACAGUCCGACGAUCACCAUGCAGGUGGGCAUCUUUGGGAAGUGGGGCAAGGGGGGGAUAGGGAGGGGGCUAACACUUUGGGAACAGGUGGUCCCAGGUCGUUUCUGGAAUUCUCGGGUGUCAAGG: 0.45
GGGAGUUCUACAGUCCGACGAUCGUCCUGUGCUACACAUCGUAUGUACCGAAUCGGGUUUUUGGGGUUUUUGGGUUUUUGGAAAGUAUUAUGUUACGCCGUUCGGAUCUGCACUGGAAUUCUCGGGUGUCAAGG: -0.17
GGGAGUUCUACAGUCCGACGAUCCCUGUGCUACACAUCGUAUGUACCGAAUCGGUUUUUUGGGGUUUUUUGGGUUUUUUGGGGAAAGUAUUAUGUUACGCCGUUCGGAUCUGCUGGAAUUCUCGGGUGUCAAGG: -0.357
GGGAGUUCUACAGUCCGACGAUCUCCUGUGCUACACAUCGUAUGUACCGAAUCAAACCCCCCCAAAUUUUUAAAUUUUUAAAAAAGUAUUAUGUUACGCCGUUCGGAUCUGCAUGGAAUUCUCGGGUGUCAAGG: -0.427
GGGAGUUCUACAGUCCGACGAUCGCAGGAAGUAAAAACAAAUGGAAAUGCUUCGGAUAGUGGCGGGGGUGGGGGUUGCUAAGGAAAGGGUGGGAUGGGAGUGGGUAAAGAGUUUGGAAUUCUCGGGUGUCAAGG: 1.11
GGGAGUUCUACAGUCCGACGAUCUCCUCAAGUCCUGUGCUACACAUCGUAUGUACCGAAUCGGGAGGAGGGAGGGAAAGUAUUAUGUUACGCCGUUCGGAUCUGCACUUCCAGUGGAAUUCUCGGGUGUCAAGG: 0.272
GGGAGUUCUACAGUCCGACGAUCUCCUGUGCUACACAUCGUAUGUACCGAAUCGGGAAAAAAGGGAAAAAAGGAAAAAAGGGGAAAGUAUUAUGUUACGCCGUUCGGAUCUGCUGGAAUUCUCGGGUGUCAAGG: 0.0968

Series 3
Target: Histone acetyltransferase KAT6A, winged helix 2, GST fusion (KAT6A, Homo sapiens, UniProt Q92794, residues 85-181)
Method: protein binding microarray
Molecule type: double-stranded DNA, one strand shown
Matrix: in vitro
Tested at: not given
Setting: 8-mer, flanks averaged, mean of 2 arrays, mostly near background
Reference: not given
Direction: higher = stronger binding
Endpoint: E-score
Construct (chain): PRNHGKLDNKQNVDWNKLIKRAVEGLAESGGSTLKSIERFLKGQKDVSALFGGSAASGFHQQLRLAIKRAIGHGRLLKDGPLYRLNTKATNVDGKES
GGCGGTGA: 0.0089
GTGGGAAC: 0.0178
CCACTCAA: 0.185
CTCAGAAA: 0.14
CGGTTGAG: 0.195
CCTTTCCG: 0.0417

Single results of other studies
EPRS1 (Homo sapiens, UniProt P07814)  cross-linked residues (ACO2 (Homo sapiens, UniProt Q99798); cross-linking MS; cell fractions; with: DSSO): K318 to K305

Repeated from above (series 2):
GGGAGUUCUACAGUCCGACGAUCACCAUGCAGGUGGGCAUCUUUGGGAAGUGGGGCAAGGGGGGGAUAGGGAGGGGGCUAACACUUUGGGAACAGGUGGUCCCAGGUCGUUUCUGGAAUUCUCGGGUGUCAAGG: 0.45
